Measured values pooled from the literature.
Each numbered part is a random draw from the data of one study; scales do not carry over between parts. Changes are numbered by the printed parent chain.

Sample 1
Target: RNA binding protein fox-1 homolog 2, RRM domain, GST-SBP tag (RBFOX2, Homo sapiens, UniProt O43251-10, residues 100-194)
Method: RNA Bind-n-Seq
Molecule type: RNA
Matrix: in vitro
Concentration: 365 nM
Setting: natural RNA segment, single round, ends assumed
Relative to: no-protein control
Reading: higher = stronger binding
All sequences stand within: GGGAGUUCUACAGUCCGACGAUC … UGGAAUUCUCGGGUGCCAA
Target sequence (chain): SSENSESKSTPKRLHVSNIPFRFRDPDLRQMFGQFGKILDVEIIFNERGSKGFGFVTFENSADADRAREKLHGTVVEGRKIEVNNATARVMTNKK
Strand | RBNS enrichment (R)
CAUCUCGCCUGGGGACCUGGUUUAUCUGUCCUCAUUCUCCCCAUUCGAUUGUGGUGUCUUGGCGACUAAUCAGUUUCAUUGUAUAACCAGCCAGAUCUUCACCUCUUCUU | 0.43
CUUGAUGUUAUGCAGGAAGUACAAAAGUACUUUAAAAUUUUGUUAUGAAAUAAAAAAAAAAAGGAUGGGUUUUGUAAAAAUAAUAAAAAAAAUAUUUUUAGCAGAACAGG | 9.76
AAAAAAAUUCCUUUAACCCAAUUGGCCCAGCUCCUGCCUUUUUCAGGCUUCUUGCUAGGUUGUGUGACCUAUAUGUGUGUCUUCUCUGGUCUGGCCCCUCUUCAAGCCAU | 0.659
CUCUCUUAACCCUUUCUCUGCUCCCAGCCUGCCUCACCAGGGAAGGUUGGAGGGGCCUCCCUCUGGCUUCUGCAUCUGCGCCAGCAAACAUCACUGCCGUUGGUCUCUCA | 3.38
UUUUCAAGGAUAUUAGUUCAAAUUGAAAUGGUUUCACGCCACACGGAAAUCUUUAAGUUAUUUGUUGAGGUACCAUAUAUUUAGGGUGCUAGGGGCAAGUAAUGUUAAUA | 0.352
CAGUCCCAACUGCAGUUUUAUUUUUACUUCAGAAGUAGAUUUCCUUCAAACCACAUGAGAUCUCUGCCACCCACCCACAAUCAAGCCCUAUAUUCCCAAGGAGGCUGACU | 0.628
CUAAUAAUCCUUUAGUUACUCAGCUGCUCCAGGGCAAAGAUGUUCCCUUGGAGCAAAUUCUGCCUAAGCCUCUCACCAAAAUUGAAAUGAAAACAGUUCCACUGACUACA | 0.665
UACCCACUGGGCAGUGGGAAGGCCUACCGACUUACUUUAUCAUUGAGGGCUUACUGAUACAAUGAAAUGAGUUUCAUGACUUUUUUUUUUUUUAAACACUUUUUGAAAUA | 0.398
CAGAUAUUUAUAAUCUUCAUCCUAUAUCAGUAGGAAUAACUAUAAGGUGCACUACAAAAAGAUGUAUGCAAACAAACAUGUUUUAAAUCAGGUCAGAUAUCUGAUGAAAA | 0.399

Sample 2
Target: Phosphate system positive regulatory protein PHO4, full length, GST-tagged (PHO4, Saccharomyces cerevisiae, UniProt P07270, residues 1-312)
Method: competition protein-binding microarray
Molecule type: double-stranded DNA, one strand shown
Matrix: in vitro
Concentration: 2 µM
Setting: whole 60-bp probe, lowest competitor level
Added: Cbf1 competitor, 0.05 µM
Reading: higher = stronger binding
All sequences stand within: … GTCTTGATTCGCTTGACGCTGCTG
Construct (chain): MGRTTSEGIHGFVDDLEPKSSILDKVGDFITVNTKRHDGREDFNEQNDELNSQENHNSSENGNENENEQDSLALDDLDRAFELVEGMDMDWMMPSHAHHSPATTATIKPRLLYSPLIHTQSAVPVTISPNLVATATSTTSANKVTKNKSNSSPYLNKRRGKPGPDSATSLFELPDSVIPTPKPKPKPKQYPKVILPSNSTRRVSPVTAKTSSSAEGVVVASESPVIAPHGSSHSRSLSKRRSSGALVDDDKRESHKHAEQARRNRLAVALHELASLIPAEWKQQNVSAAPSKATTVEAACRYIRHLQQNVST
Strand | fluorescence intensity [a.u.]
GAGGAGACACACCGTCACGTGTTTTGCCATTTTGTA | 15400
CACCTATCATCAGCCAACGTGACGGCCGCGATGCCT | 10800
CAACAGTCAAAGGACCTCATGACAGATGGTACTTCG | 4730
AAATTACTAAGTTGTCACCAGACTTACCCCGTATGA | 2990
AAAGCGGTAATTTGCTGCGTGGGTGCAGATATCTAT | 8270
ACAATAACTGGGAAACCGATCTCCTTGACAGCGGCC | 2620
AAACTTTGGCCTTAGCCCGTGGGTATGTTACCATTG | 8360
GTCTTGTCTCATTGTGTCGTGGGTGTCCCCACTTCA | 7100
CTTCTGTAAATTTGTGTGGTGGGTGGACGCGCCCCG | 5120
CTTCTGTAAATTTGTCACAGGACTTGACGCGCCCCG | 3080
GAGAACGCAGAGGACAACGTGGCCGTTGGGTTGATA | 14200

Sample 3
Target: CCNB3, cyclin fold, Cln2 fusion (human)
Method: yeast growth competition, sequencing
Matrix: yeast
Setting: weak parent motif
Relative to: not given
Reading: higher = stronger binding
Starting sequence: CDC6 docking peptide (human); TLKGRRLVFDNQL
Variant | normalised enrichment score
G4A | 0.225
L2T | -0.285
Q12G | 0.819
R6C | 0.3
F9C | -0.133
Q12A | 0.287

Further values, each from its own experiment
Substance | target | test | system | conditions | scale | endpoint | value
PhoQ, residues 284 288 289 292 302 303 ALASRC | PhoP, residues 12 14 15 18 19 MHTVL (Escherichia coli, UniProt P23836) | Sort-seq, measured: YFP reporter | E. coli | PhoQ-PhoP variant library, added: 10 µM Mg2+ | relative to: high Mg2+ state, higher = stronger signaling | fold induction | 9.97

A few entries again (sample 2):
Strand | fluorescence intensity [a.u.]
GAGGAGACACACCGTCACGTGTTTTGCCATTTTGTA | 15400
CTTCTGTAAATTTGTCACAGGACTTGACGCGCCCCG | 3080
